Measurements gathered from unrelated publications.
Compare with care: the assays were run in different laboratories. “And” joins repeats or separate records; there may be more than shown. ± gives the spread as reported.
Method: steady-state kinetics
B1: enzyme (Arabidopsis thaliana, UniProt Q9C969); chain GSFGMLSRRTLGTDMPVMAQIRSLMAELTNPMSLAQGVVHWQPPQKALEKVKELVWDPIISSYGPDEGLPELRQALLKKLREENKLTNSQVMVTAGANQAFVNLVITLCDAGDSVVMFEPYYFNSYMAFQMTGVTNIIVGPGQSDTLYPDADWLERTLSESKPTPKVVTVVNPGNPSGTYVPEPLLKRIAQICKDAGCWLIVDNTYEYFMYDGLKHCCVEGDHIVNVFSFSKTYGMMGWRLGYIAYSERLDGFATELVKIQDNIPICAAIISQRLAVYALEEGSGWITERVKSLVKNRDIVKEALEPLGKENVKGGEGAIYLWAKLPEGHRDDFKVVRWLAHRHGVVVIPGCASGSPGYLRVSFGGLQEVEMRAAAARLRKGIEELLHHGMVE
B2: PYCR2 R119C (Homo sapiens, UniProt Q96C36); chain MSVGFIGAGQLAYALARGFTAAGILSAHKIIASSPEMNLPTVSALRKMGVNLTRSNKETVKHSDVLFLAVKPHIIPFILDEIGADVQARHIVVSCAAGVTISSVEKKLMAFQPAPKVICCMTNTPVVVQEGATVYATGTHALVEDGQLLEQLMSSVGFCTEVEEDLIDAVTGLSGSGPAYAFMALDALADGGVKMGLPRRLAIQLGAQALLGAAKMLLDSEQHPCQLKDNVCSPGGATIHALHFLESGGFRSLLINAVEASCIRTRELQSMADQEKISPAALKKTLLDRVKLESPTVSTLTPSSPGKLLTRSLALGGKKD
B3: NUDT12 (Homo sapiens, UniProt Q9BQG2); chain MSSVKRSLKQEIVTQFHCSAAEGDIAKLTGILSHSPSLLNETSENGWTALMYAARNGHPEIVQFLLEKGCDRSIVNKSRQTALDIAVFWGYKHIANLLATAKGGKKPWFLTNEVEECENYFSKTLLDRKSEKRNNSDWLLAKESHPATVFILFSDLNPLVTLGGNKESFQQPEVRLCQLNYTDIKDYLAQPEKITLIFLGVELEIKDKLLNYAGEVPREEEDGLVAWFALGIDPIAAEEFKQRHENCYFLHPPMPALLQLKEKEAGVVAQARSVLAWHSRYKFCPTCGNATKIEEGGYKRLCLKEDCPSLNGVHNTSYPRVDPVVIMQVIHPDGTKCLLGRQKRFPPGMFTCLAGFIEPGETIEDAVRREVEEESGVKVGHVQYVACQPWPMPSSLMIGCLALAVSTEIKVDKNEIEDARWFTREQVLDVLTKGKQQAFFVPPSRAIAHQLIKHWIRINPNL
B4: enzyme H130A (Salinispora arenicola, UniProt A8M783); chain MASTPWISFTTDYGLADGFVAACHGVLARLAPTARVIDVTHLVPPGDVRRGAAVLAQTVPYLPAAVHVAVVDPGVGTARRAIALTAGNGLLVGPDNGLLLDAATALGGVDAAVELTNPDWLGARMSATFAGRDVFAPVAARLALGAPLADAGPAVEPGALVRLPTPLVQPETDGFTAEVLTVDHFGNVQLAATGALLESLPRSLRVAHRPAVHARTFDDAPPGGLLVHVDSAGLVAVAVNGGRAADLLAVTPGDQLRVTAG
B5: gdh (Bacillus subtilis, UniProt P12310); chain MYPDLKGKVVAITGAASGLGKAMAIRFGKEQAKVVINYYSNKQDPNEVKEEVIKAGGEAVVVQGDVTKEEDVKNIVQTAIKEFGTLDIMINNAGLENPVPSHEMPLKDWDKVIGTNLTGAFLGSREAIKYFVENDIKGNVINMSSVHEVIPWPLFVHYAASKGGIKLMTETLALEYAPKGIRVNNIGPGAINTPINAEKFADPKQKADVESMIPMGYIGEPEEIAAVAAWLASKEASYVTGITLFADGGMTQYPSFQAGRG
B6: enzyme (Staphylococcus aureus, UniProt Q2G294); chain MKVEVYKGAQGKHNLKDYEETYNTFDWKDVEQAFSWSETGKMNMAYECIDRHVDQGLGDKIALNYKDEHRKESYTYKDMQRLSNKAANVLSEHAEVDKGDRVFIFMSRTPELYFALLGVLKIGAIVGPLFEAFMEKAVADRLENSEAKVLITNKALLPRVPVDKLPNLKKIVVVDEDVEDNYIDFISLMETASDEFDIEWLKSDDGLILHYTSGSTGQPKGVLHVQQAMLVHYISGKYVLDLQEDDVYWCTADPGWVTGTSYGIFAPWLNGATNCIAGGRFSPEQWYSMIEDFKVTIWYTAPTALRMLMSAGDDIVEKYDLSSLRSILSVGEPLNPEVIKWAKKVYGLTVLDTWWMTETGGHMIVNYPTMDVKLGSMGKPLPGIQAAIIDDAGNELPPNRMGNLAIKKGWPSMMYRIWKNPEKYKSYFIGDWYVSGDSAYKDEDGYFWFQGRVDDVIMTAGERVGPFEVESKLVEHEAVAEAGIIGKPDPVRGEIIKAFVALRKGYEPTDELKEEIRIFVKEGLSAHAAPREIEFKDKLPKTRSGKIMRRVLKAWELNLDAGDLSTME
B7: enzyme (UniProt P0DY30); chain ESPWIGVHFMVYTDKMLDQLAEQLPALSKRGVTHLILEINYHFAYKSHPELAPTNGITVVGAKKFADTARAHHIEIIPQINCLGHQSWKQNNAALLKHYPQFDETPGAYPDNKDIYCRSWCPQHPEVNRVVFALIDELIDAFEAKAFHVGMDEVFLIASEHCERCRGGDPAALFAKAVNDLHGHIVGKRGVQMLMWGDRLLDAEQTGYGKWEASGNGTAPAIDRIPKDIVLCDWHYEKRDRYPSLAVFLDKGFRVWPAGWKKPEAAEAFAAAARGCQNPRLLGYLCTTWGAVEIPNLADWPALLRPIEKIIAP
B8: enzyme C458A (Methanosarcina mazei, UniProt Q8PVB1); chain MSEQRSVPLREHLLALKPCRHGGLIQETSETYGIPENEILDFSANFNPLGSPFDYPENGLNFEDIIKKSCGKLLEYPDNRYVEFREAAARFVGLGVTPQSIVPGNGSTEIVRLVVESVIEKGDKVLLPWPTFGEYEMQCRITGAEPVCPSQEEVNTLPDEVLEEAKILFICNPNNPTGKLRTREELKVLAERCREHKTLLYVDEAFIELSDPSQSVADLPAENNYVFVMRSLTKDFAIPGIRMGFGIAPPAMADILNTARLSWNLGAIANNTGIALLNIEGGIDSPYLKKAREMILKEGETLKAKIDRIRGFEAGEVNVNFILVDVSKFMLNSSELTARLAARGVLVRDCVSFHGLGKNYIRVAVRTEKENDRLIAAIGDVITEWGREQAKNELQHVIEKASEEGIGGRKTCEYYPCHFEGQNCTFCFCPFYPCENEKTGGKWIQSSRGGRVWSCVDAHLVHKKEIAQKILDCLMHEGDTDELVKVAWKEVMEPIL
B9: enzyme (Plasmodium falciparum, UniProt C0H484); chain MVREAHELLDGSRPIPIDKITYELSQNIILAFDNHENINNKDIQIEIEGRVGLVIDKNKNRIKLPINTDAIIENNYSDFQAGIDRESFEYLLDYFHNMTLKKRLSIRNNDNNNNNMDNNNNNMDNNNNIHIHNSGNNTNQTHSYDKNADDNKPTCNYSYDKKNACIYDFLELKTTKSIDKYYVIKNNNSRIRTTTYLNDDNKQETESMMIQSLQKDNLNIWNVYTGNNYDYFDDDEEDDDDDYNNNNNNNNGDTGTKTNIATNNTHGLTTSKSQHIYNNLVDKNDSIDYRISINIEYTKPISKLYLSKNTPVHERLKERTTFINTYLGLQVDMTKIKTKNNELYEVEIEIPSKTIFKAMSNLRNKKDSNYLHFICSNLVNNIRGICSQLNVFKKSKHMLKNTMITKLNNNSNNQNNLSLLPNHPNDDTISSKEKEKFKKYIHSVLPIVGDY
B10: enzyme (Methylibium petroleiphilum, UniProt A2SI32); chain PFAQIYLIEGRTEEQKRAVIEKVTQAMMEAVGAPKENVRVWIHDVPKENWGIGGVSAKALGR
UniProt P09546, sequence (whole entry, looked up): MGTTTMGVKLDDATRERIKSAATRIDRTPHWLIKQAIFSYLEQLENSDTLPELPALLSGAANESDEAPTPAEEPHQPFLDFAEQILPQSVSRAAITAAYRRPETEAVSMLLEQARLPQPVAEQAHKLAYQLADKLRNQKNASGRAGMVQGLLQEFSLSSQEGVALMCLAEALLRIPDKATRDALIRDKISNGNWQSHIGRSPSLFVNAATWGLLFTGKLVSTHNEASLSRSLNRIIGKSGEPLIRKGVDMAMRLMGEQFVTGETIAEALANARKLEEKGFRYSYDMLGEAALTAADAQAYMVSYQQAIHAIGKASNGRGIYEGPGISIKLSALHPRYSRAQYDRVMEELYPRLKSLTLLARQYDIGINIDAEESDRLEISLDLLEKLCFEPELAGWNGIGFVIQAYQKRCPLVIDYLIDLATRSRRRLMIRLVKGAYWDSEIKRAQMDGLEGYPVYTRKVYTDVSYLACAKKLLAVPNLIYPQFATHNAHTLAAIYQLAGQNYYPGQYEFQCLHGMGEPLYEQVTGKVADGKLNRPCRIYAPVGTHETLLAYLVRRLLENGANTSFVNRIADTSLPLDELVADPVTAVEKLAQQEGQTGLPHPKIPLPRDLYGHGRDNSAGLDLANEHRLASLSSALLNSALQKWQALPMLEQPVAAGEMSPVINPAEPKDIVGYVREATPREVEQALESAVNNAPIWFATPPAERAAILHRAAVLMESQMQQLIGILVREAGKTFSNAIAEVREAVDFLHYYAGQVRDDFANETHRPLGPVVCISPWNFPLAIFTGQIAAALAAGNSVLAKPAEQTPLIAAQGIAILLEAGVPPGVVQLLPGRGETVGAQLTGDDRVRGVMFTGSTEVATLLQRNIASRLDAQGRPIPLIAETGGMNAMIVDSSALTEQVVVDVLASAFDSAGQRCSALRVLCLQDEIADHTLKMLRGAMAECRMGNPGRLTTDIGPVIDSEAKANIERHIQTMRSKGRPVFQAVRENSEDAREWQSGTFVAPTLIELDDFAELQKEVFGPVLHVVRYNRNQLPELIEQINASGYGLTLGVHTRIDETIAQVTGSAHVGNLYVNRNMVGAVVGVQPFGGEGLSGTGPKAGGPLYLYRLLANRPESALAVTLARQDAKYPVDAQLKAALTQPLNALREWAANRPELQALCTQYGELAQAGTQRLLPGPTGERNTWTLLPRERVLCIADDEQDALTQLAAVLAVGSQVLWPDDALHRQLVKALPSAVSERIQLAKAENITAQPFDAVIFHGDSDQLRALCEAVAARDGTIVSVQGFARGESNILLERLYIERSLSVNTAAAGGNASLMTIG
UniProt P0A9Q9, sequence (whole entry, looked up): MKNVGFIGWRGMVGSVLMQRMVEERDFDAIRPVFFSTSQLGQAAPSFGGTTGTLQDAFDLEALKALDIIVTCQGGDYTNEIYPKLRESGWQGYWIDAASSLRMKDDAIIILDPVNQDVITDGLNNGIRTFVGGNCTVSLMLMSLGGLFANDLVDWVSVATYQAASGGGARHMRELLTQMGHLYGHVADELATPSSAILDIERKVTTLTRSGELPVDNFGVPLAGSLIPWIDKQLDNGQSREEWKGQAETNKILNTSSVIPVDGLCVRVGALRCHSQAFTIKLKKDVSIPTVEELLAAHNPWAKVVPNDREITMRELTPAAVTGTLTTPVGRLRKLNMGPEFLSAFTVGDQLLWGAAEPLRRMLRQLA
UniProt P78804, sequence (whole entry, looked up): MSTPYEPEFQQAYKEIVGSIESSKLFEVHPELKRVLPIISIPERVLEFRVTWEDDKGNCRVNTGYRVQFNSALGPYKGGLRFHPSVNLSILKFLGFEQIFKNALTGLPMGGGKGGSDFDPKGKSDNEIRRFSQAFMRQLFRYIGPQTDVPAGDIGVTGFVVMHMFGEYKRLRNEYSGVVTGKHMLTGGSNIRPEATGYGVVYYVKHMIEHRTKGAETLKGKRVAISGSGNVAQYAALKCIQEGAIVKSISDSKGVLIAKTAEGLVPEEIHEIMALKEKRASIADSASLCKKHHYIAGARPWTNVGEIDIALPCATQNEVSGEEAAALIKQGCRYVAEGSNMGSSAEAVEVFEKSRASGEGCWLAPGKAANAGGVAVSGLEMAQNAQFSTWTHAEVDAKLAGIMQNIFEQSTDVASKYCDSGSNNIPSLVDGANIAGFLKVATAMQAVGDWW
UniProt P49419, sequence (whole entry, looked up): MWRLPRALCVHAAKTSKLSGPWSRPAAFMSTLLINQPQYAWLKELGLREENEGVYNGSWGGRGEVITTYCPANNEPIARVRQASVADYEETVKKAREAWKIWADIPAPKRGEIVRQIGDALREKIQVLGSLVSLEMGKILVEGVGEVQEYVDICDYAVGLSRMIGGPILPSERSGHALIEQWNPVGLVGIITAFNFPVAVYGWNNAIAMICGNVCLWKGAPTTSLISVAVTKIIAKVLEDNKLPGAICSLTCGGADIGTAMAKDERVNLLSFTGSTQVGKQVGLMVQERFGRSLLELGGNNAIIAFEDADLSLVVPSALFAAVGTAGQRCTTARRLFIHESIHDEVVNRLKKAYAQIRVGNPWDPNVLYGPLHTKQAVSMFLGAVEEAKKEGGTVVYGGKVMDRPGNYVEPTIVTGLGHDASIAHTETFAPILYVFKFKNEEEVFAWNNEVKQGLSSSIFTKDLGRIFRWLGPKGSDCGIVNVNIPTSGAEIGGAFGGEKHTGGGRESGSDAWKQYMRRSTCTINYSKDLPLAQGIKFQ

| Molecule | substrate | setting | kcat/Km |
| --- | --- | --- | --- |
| B1 (enzyme) | O=C(O)C(=O)Cc1cccc(C(=O)O)c1 | – | 502000 M⁻¹ s⁻¹ and 460000 M⁻¹ s⁻¹ and 472000 M⁻¹ s⁻¹ |
| B2 (PYCR2 R119C) | NC(=O)C1=CN([C@@H]2O[C@H](COP(=O)(O)OP(=O)(O)OC[C@H]3O[C@@H](n4cnc5c(N)ncnc54)[C@H](O)[C@@H]3O)[C@@H](O)[C@H]2O)C=CC1 | pH 7.5, 37 °C, apparent, cofactor varied, with: DL-P5C 5000 µM | 440 ± 70 M⁻¹ s⁻¹ |
| B3 (NUDT12) | Nc1ncnc2c1ncn2[C@@H]1O[C@H](COP(=O)(O)OP(=O)(O)OP(=O)(O)OP(=O)(O)OP(=O)(O)OC[C@H]2O[C@@H](n3cnc4c(N)ncnc43)[C@H](O)[C@@H]2O)[C@@H](O)[C@H]1O | with: Mg2+ | 29 M⁻¹ s⁻¹ |
| B4 (enzyme H130A) | C[S+](CC[C@H](N)C(=O)O)C[C@H]1O[C@@H](n2cnc3c(N)ncnc32)[C@H](O)[C@@H]1O | pH 7.9, 37 °C, apparent, with: 1-200 µM SAM | 1900 M⁻¹ s⁻¹ |
| B5 (gdh) | NC(=O)c1ccc[n+]([C@@H]2O[C@H](COP(=O)(O)OP(=O)(O)OC[C@H]3O[C@@H](n4cnc5c(N)ncnc54)[C@H](O)[C@@H]3O)[C@@H](O)[C@H]2O)c1 | pH 8, 50 °C | 6670 ± 333 M⁻¹ s⁻¹ |
| enzyme (Schizosaccharomyces pombe, UniProt P78804) | NC(=O)C1=CN([C@@H]2O[C@H](COP(=O)(O)OP(=O)(O)OC[C@H]3O[C@@H](n4cnc5c(N)ncnc54)[C@H](OP(=O)(O)O)[C@@H]3O)[C@@H](O)[C@H]2O)C=CC1 | pH 7, 30 °C, apparent | 1e+06 ± 100000 M⁻¹ s⁻¹ |
| B6 (enzyme) | CCC(=O)O | pH 7, 30 °C, apparent | 1400 M⁻¹ s⁻¹ |
| enzyme Y41F (Homo sapiens, UniProt Q08623) | O=c1[nH]cc([C@@H]2O[C@H](COP(=O)(O)O)[C@@H](O)[C@H]2O)c(=O)[nH]1 | pH 7, 25 °C | 600000 M⁻¹ s⁻¹ |
| enzyme (Saccharina japonica, UniProt A0A097IUE3) | Nc1ncnc2c1ncn2[C@@H]1O[C@H](COP(=O)(O)OP(=O)(O)O)[C@@H](O)[C@H]1O | pH 6.5, 25 °C, with: 16 mM PEP | 290000 M⁻¹ s⁻¹ |
| asd (Escherichia coli, UniProt P0A9Q9) | N[C@@H](CCC=O)C(=O)O | pH 7.6, apparent, with: 1 mM NADP+ | 21 ± 9 M⁻¹ s⁻¹ |
| B7 (enzyme) | CC(=O)N[C@H]1[C@H](Oc2ccc([N+](=O)[O-])cc2)O[C@H](CO)[C@@H](O)[C@@H]1O[C@@H]1O[C@H](CO)[C@H](O)[C@H](O)[C@H]1O | pH 6, 50 °C | 4250 M⁻¹ s⁻¹ |
| acsA D449E (Pseudomonas chlororaphis) | O=C(O)CCC(F)(F)F | pH 7 | 117 ± 33.3 M⁻¹ s⁻¹ |
| B8 (enzyme C458A) | Nc1ncnc2c1ncn2[C@@H]1O[C@H](COP(=O)(O)OP(=O)(O)OP(=O)(O)O)[C@@H](O)[C@H]1O | pH 8.5, 25 °C, apparent, anoxic, with: L-Thr 10 mM | 2200 ± 600 M⁻¹ s⁻¹ |
| putA (Escherichia coli, UniProt P09546) | O=C(O)[C@@H]1CCCN1 | pH 7.4, with: CoQ1 | 70 ± 3.8 M⁻¹ s⁻¹ |
| ALDH7A1 (Homo sapiens, UniProt P49419) | N[C@@H](CCCC=O)C(=O)O | pH 8, apparent, with: NAD+ 2.5 mM | 2100 ± 480 M⁻¹ s⁻¹ |
| enzyme (Acinetobacter baumannii, UniProt A0A5P1UDB1) | O=C(O)c1ccc(F)cc1O | pH 7.5, 37 °C, apparent | 89.4 M⁻¹ s⁻¹ |
| B9 (enzyme) | Nc1ncnc2c1ncn2[C@@H]1O[C@H](COP(=O)(O)OP(=O)(O)OP(=O)(O)O)[C@@H](O)[C@H]1O | with: Mn2+ | 36000 ± 3000 M⁻¹ s⁻¹ |
| enzyme (Mycobacteroides abscessus, UniProt B1MGE0) | C/C(=C\C=C(/O)C(=O)O)C(=O)CC[C@@H]1C(=O)CC[C@]2(C)C(=O)CC[C@@H]12 | pH 7.5, 25 °C | 1.1e+06 M⁻¹ s⁻¹ |
| B10 (enzyme) | C/C(=C\C=C(/O)C(=O)O)C(=O)O | pH 7.3, 24 °C | 1e+06 M⁻¹ s⁻¹ |
| HNL C81L/E79H/G176S/H103V/K236M/N104A/T11G/V106F (Hevea brasiliensis) | CC(=O)Oc1ccc([N+](=O)[O-])cc1 | pH 7.2, 22 °C | 417 M⁻¹ s⁻¹ |

Some of these lines once more:
| Molecule | substrate | setting | kcat/Km |
| --- | --- | --- | --- |
| B3 (NUDT12) | Nc1ncnc2c1ncn2[C@@H]1O[C@H](COP(=O)(O)OP(=O)(O)OP(=O)(O)OP(=O)(O)OP(=O)(O)OC[C@H]2O[C@@H](n3cnc4c(N)ncnc43)[C@H](O)[C@@H]2O)[C@@H](O)[C@H]1O | with: Mg2+ | 29 M⁻¹ s⁻¹ |
